Measurements gathered from unrelated publications.
Numbered parts are unrelated; each lists some results of a single study. Changes are numbered by the printed parent chain.

Set 1
Target: Histone acetyltransferase KAT6A, winged helix 1, GST fusion (KAT6A, Homo sapiens, UniProt Q92794, residues 1-85)
Technique: protein binding microarray
Molecule type: double-stranded DNA, one strand shown
Sample: in vitro
Tested at: not given
Notes: 8-mer, flanks averaged, mean of 2 arrays, mostly near background
Relative to: not given
Reading: higher = stronger binding
Residues (chain): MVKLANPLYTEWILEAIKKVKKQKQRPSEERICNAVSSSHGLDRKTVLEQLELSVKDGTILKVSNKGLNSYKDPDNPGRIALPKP
| Oligonucleotide | E-score |
| --- | --- |
| ATGCCAGA | -0.195 |
| ACTTTTCG | -0.0483 |
| ATCTAGAA | -0.216 |
| AACGATGA | -0.0761 |
| ACCGTGTC | 0.202 |
| CGACCTCC | -0.000435 |
| CGCGTGAG | 0.308 |
| CAAATCTC | -0.13 |
| AACACTCT | -0.127 |
| GACTTCCA | -0.221 |
| AAGTCATA | -0.237 |
| AGGGAATC | -0.0957 |
| CGATGACC | 0.159 |
| GCATATCA | 0.0672 |
| GCCGCCCA | 0.337 |
| GCCCCGGC | 0.287 |
| GTAATGTA | 0.0697 |
| GTAAATGA | -0.141 |

Set 2
Target: ABI1, truncated, D143A, DHFR fusion (Arabidopsis thaliana)
Technique: DHFR PCA, deep sequencing
Sample: yeast
Notes: methotrexate growth selection, single substitutions
Together with: (+)-ABA 0 µM
Relative to: wild-type fitted maximum
Reading: higher = stronger binding
Starting sequence: PYL1, truncated, DHFR fusion (Arabidopsis thaliana); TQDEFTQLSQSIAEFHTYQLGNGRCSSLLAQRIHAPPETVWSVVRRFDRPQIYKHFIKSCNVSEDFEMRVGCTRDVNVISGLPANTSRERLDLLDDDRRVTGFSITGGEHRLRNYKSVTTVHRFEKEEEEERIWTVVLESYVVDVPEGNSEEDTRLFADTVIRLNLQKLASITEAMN
| Variant | relative binding score [%] |
| --- | --- |
| E109A | -1.77 |
| E129H | 22.1 |
| L82G | 44.7 |
| E38T | -1.12 |
| T17S | 12.7 |
| Q31Y | 1.52 |
| E139D | -7.24 |
| I133L | 22.1 |
| D92M | 3.8 |
| M176Q | 10.3 |
| V142N | -10.5 |
| V62E | -4.85 |
| S117M | -7.77 |
| G81T | 36.5 |
| T154R | -5.65 |
| A13D | 24.1 |
| S11F | 14 |

Set 3
Target: RING finger protein unkempt homolog, zinc fingers 1-6, GST-SBP tag (UNK, Homo sapiens, UniProt Q9C0B0, residues 30-357)
Technique: RNA Bind-n-Seq
Molecule type: RNA
Sample: in vitro
Tested at: not given
Notes: RNA with constant flanks, human and mouse sites, ends assumed
Relative to: input RNA pool
Reading: higher = stronger binding
All sequences stand within: GGGAGUUCUACAGUCCGACGAUC … CAACAGAGGAUUGAGCAUCA
Construct (chain): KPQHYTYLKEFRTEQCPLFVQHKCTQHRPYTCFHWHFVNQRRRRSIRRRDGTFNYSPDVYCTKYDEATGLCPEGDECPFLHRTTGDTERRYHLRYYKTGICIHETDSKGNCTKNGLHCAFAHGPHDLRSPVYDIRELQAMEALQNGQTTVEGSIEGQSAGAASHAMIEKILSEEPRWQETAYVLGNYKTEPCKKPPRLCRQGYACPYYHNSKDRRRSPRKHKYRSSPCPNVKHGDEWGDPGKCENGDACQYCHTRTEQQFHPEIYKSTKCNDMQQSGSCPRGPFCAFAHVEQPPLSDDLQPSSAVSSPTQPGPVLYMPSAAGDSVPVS
| Oligonucleotide | bound/input enrichment |
| --- | --- |
| CAGCUGGAAGAUGGGCGCACCCUGUCUGACUACAACAUCCAGAAAGAGUCUACCCUGCACCUGGUGCUCCGUCUCAGAGGUGGGAUGCAGAUCUUCGUGAAGACCCUGACUGGUAAGACC | 0.0756 ratio |
| ACAUCUGCAGAUAAAGUGGAGAGUCUGGAUGUGGAUAGUGAAGCUAAGAAACUAUUGGGUUUAGGACAGAAACAUCUGGUGAUGGGGGAUAUUCCAGCAGCUGUCAAUGCAUUCCAGGAA | 0.524 ratio |
| GUUGUCAGUGUGGACAAAGGAAGCAGAGCUGUGCUGUGGGCACAGCCUUGAUGCUGCACCCUUAGGAGCACCGUGGGACCCCACGGCCCAUCUUGGAGAAUGAUGUGUCCUCCCAGAAAA | 0.126 ratio |
| GAUAAGUUUGAAAAACUUGUGCAGACUGUGAGAGAUUAUCAUGCAACUUGGAAAACUGUUAGUAAUAAAUUAAAAAAUCAUCCUGAUUAUGAAGAAUACAUCAACUUAGAGGGAACAAGA | 14 ratio |
| UCAUAUGUUCAAGACAGAGUUCCUUCAUAUUCACAAGGAGCAAGACCAAAAGAAAACUCAAUGAGCACUUUACAGUUGAAUACAUCAUCCACAAACCACCAAUUGCCUUCUGAACAUCAG | 0.228 ratio |
| GUCCAGUUUUCACUUAGAUUUAUAGCAAAAAGUACCCCAGAGAGAUCUCACUCUAUUCUGUUACAAUUCUCCAUCAGUGGAGGAAUCACUUGGCACCUGAUGGAUGAAUUUUACUUUCCU | 11 ratio |
| ACUCAUGUACCCAUGUUACAGGUAUGGACUGCUGAUAAACCACAUCCACAAGAAGAGUAUUUAGAUUGCCUGUGGGCCCAGAUUCAGAAAUUGAAAAAGGAUCGCUGGCAGGAACGGCAC | 0.188 ratio |
| AGACAAGGUGUCAAAACCAUGAGACAAAGGUUAAAUCCAACGUCCAACAAAAGUUCUCGAAAGUUAUUUGAUCAAGCCAACAAGCUUAAAAAAACGUGUGCACACCUUUUUACAGCUACA | 0.12 ratio |
| GCAGUCCGCAGAACGGAAACUGGACGCAUUGGAUUAGAAGGCUGCCUUUGUCAAGAUUUUUAUAGGAUAAGAGACCUUUUAUAUGAACAAUAUGCCAUUGUAUAAAGGACAUGAUGUCAA | 0.923 ratio |
| AAUGCUCUUAUAAACAAUACCAGAGGAAUUAUUUUUUACAGUGUCCCUCACCAUGGGUCACGUUUGGCUGAAUACUCCGUUAAUAUUCGAUAUCUUCUCUUUCCCUCACUGGAAGUCAAA | 0.443 ratio |
| GGCUAUCUGGUAUCUGUAGAUGGCUACAUGAACAUGCAGCUUGCAAAUACAGAAGAAUACAUAGAUGGAGCUUUGUCUGGACAUCUGGGUGAAGUUUUAAUAAGGUGUAAUAAUGUCCUU | 0.164 ratio |

Set 4
Target: Sal-like protein 4, full length isoform A (SALL4, Homo sapiens, UniProt Q9UJQ4, residues 1-1053)
UniProt Q9UJQ4, sequence (whole entry, looked up): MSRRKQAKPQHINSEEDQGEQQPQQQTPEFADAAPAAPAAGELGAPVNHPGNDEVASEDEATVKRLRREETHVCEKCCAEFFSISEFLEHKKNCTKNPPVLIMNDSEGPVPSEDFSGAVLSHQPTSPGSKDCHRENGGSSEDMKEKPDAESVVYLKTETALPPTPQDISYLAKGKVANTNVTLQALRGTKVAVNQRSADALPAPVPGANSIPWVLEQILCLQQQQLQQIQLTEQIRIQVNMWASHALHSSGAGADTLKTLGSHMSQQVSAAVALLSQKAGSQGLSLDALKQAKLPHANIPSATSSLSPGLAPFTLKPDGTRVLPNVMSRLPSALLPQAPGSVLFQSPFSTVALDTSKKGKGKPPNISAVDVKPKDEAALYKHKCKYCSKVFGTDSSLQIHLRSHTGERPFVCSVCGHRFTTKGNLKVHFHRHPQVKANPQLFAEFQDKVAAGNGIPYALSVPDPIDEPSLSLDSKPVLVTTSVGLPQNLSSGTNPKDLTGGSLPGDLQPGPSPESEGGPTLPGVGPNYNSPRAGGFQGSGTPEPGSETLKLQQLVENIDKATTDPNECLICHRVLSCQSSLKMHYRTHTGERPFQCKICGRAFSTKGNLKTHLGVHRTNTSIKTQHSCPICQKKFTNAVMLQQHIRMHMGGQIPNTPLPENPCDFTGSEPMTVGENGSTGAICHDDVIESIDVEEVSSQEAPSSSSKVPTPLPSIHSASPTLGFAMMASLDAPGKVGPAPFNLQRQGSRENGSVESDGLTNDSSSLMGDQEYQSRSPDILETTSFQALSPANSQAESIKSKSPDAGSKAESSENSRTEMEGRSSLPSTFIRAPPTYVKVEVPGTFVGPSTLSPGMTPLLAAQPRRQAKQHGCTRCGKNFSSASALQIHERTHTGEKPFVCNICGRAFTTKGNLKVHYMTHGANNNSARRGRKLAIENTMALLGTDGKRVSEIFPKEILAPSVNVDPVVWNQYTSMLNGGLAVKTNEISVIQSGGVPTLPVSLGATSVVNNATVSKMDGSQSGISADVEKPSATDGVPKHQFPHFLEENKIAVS
Technique: universal PBM
Molecule type: double-stranded DNA, one strand shown
Sample: in vitro
Tested at: 600 nM
Notes: 8-mer, flanks averaged, mean of replicates
Reading: higher = stronger binding
| Oligonucleotide | E-score |
| --- | --- |
| AAGCCTAA | 0.0317 |
| GGCAAGAC | -0.158 |
| CGCCTTAG | -0.218 |
| CTGGCCAG | -0.235 |
| CTGTGTCC | -0.149 |
| ACTCTAAC | 0.0381 |
| ATCATACC | 0.182 |
| CATAGAAA | 0.232 |
| CTCAAATA | 0.247 |
| GTGGCGCA | -0.0836 |
| ACGTTTCC | -0.106 |
| GAGGCTGC | -0.293 |
| GTGCGACA | -0.24 |
| GCCAACTA | -0.0455 |
| ATACCGTA | 0.00282 |
| ATTTATGC | 0.374 |
| TCGGGTAA | 0.0922 |
| AGGACCAA | -0.165 |

Set 5
Target: PABPC1L2, full length, GST fusion (mouse, UniProt A0ABA7IW68)
Technique: RNAcompete
Molecule type: RNA
Sample: in vitro
Tested at: 20 nM
Notes: 7-mer, probes averaged, single round
Relative to: mean of 7-mers
Reading: higher = stronger binding
Construct (chain): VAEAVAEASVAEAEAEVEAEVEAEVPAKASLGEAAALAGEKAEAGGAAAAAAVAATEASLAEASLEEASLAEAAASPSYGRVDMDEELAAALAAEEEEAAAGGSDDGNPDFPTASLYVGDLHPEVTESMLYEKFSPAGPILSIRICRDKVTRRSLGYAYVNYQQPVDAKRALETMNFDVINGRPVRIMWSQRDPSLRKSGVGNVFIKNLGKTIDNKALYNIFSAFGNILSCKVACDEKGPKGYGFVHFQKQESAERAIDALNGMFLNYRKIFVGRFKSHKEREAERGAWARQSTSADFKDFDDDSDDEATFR
| Oligonucleotide | 7-mer Z-score |
| --- | --- |
| AGUGUCU | -0.258 |
| UAGGCCC | -0.132 |
| GCGAAUA | 0.0605 |
| CUACUGU | -0.197 |
| CGGUACU | -0.0645 |
| GAAGUUC | -0.184 |
| AUAACAC | 0.00617 |
| UGAUUUU | -0.182 |
| GAGACUU | -0.0283 |
| UCCACAG | -0.177 |
| CGGCCUA | -0.275 |
| GUUCUUU | -0.248 |
| AUGAACC | 0.0787 |
| UUUAGAG | 0.294 |
| AUUCUGA | -0.336 |
| UAGUGAC | -0.222 |
| AUACAUC | -0.0373 |
| GUUAAAG | 0.269 |
| CUUUGAC | -0.229 |
| GCAAGAA | 0.466 |
| CAGACCC | -0.0718 |
| CUCAUAC | -0.278 |
| GGCUCUG | -0.00108 |
| CCCAGAU | -0.132 |
| AGGGUGU | 0.129 |

Set 6
Target: RNA binding protein fox-1 homolog 2, RRM domain, GST-SBP tag (RBFOX2, Homo sapiens, UniProt O43251-10, residues 100-194)
Technique: RNA Bind-n-Seq
Molecule type: RNA
Sample: in vitro
Tested at: 365 nM
Notes: natural RNA segment, single round, ends assumed
Relative to: no-protein control
Reading: higher = stronger binding
All sequences stand within: GGGAGUUCUACAGUCCGACGAUC … UGGAAUUCUCGGGUGCCAA
Construct (chain): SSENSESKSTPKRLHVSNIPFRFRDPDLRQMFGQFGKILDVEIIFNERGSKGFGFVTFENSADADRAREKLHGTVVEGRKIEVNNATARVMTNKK
| Oligonucleotide | RBNS enrichment (R) |
| --- | --- |
| GUCUUUGGAUUUGGACCUCUUGGGGAAAAGAACGCUGUCAGGAAGGGUUUUAAGGGACACCAGUGGAGGUGUGGCUGAAUCUUCAUGUAUUGUUUGGCUUUCUGAGGGAU | 1.17 |
| UAAUCAGAUUAACUUCUUAAACUGCUUAAUUCUCAUCGCUUCUUAAAACUAGGGUGGUUUGCAGGUAUCCAAAAAUAUGCUAUGACAGAACAAAAUUGUGGUAUUCAUGA | 1.46 |
| GAGUGAACUACACAUAGACCACACUGCGGGGCGAGAGCAUUACAUAACAUGGCCACUAGGAGGGUUUGGUUUGGGGGAAAUGAGGUGUGAGGCUUUGGGGUUUGUUUUUG | 1.81 |
| GUCUUGGGGUUGAGCCCUAGGGCAGUUCUUGGUAGGUUCUGCUGGGCAGAACAUAUGGGUUAAAUCUCGGUAGAGAGUUUCCCUCAUCCUCUAUCCGUAAGUGUCCUUCC | 0.306 |
| AUCCAACGGAAUAUAAUCAGUUUUCAUUCAUUCCAGUGCCUAGUUAAAUCUAACCUGACUUAAACAUAUGCCUGUUUUUAUGUUUACCUAUAAUUUUCAUAUAGCCGUAU | 0.969 |
| UUGGCUGGGCCUCUGGUUCUGACACUUUCUGCUGGAAGCUGUCAGGCUGGGACAGGCUUUGAUUUUGAGGGUUAGCAAGACAAAGCAAAUAAAUGCCUUCCACCUCACCG | 0.173 |
| AUAAUUUAAUUUAGUGGAAAAAGAAGACAAUGCUUUCCAUAUUGUGAUAAGGUAACAUGGGGUUUUUCUGGGCCAGCCUUUAGAACACUGUUAGGGUACAUACGCUACCU | 0.83 |
| AGGCUCCUGAGCCAGUCAGGCGGAGUUCAAGUGAUAUCUUGGGACAGUGACCAUGGUCUGCAUUACUUGGGGGAGGAUGGGGUACAAGACACCAGAUCAUUUUUAUACAG | 0.631 |
| UUCCUCCCUCUAAAAUCAAAGAGCUGAAUUAUGUGAUCCUUGAGGUCUCUUCCACUUAUAAUACCAACUGUCUUGUCAGACUGGCAAAUUAUAUUGGCCUCUCCUUAUGU | 0.735 |
| CCAUAGCAGGUCUGGUUCCUGCUCCCCGCCUAGGACAGGAGCUGUCUGGAGCUCCACCUUUGCAAAGAAAGGAAAAACACAAAUUGCCCCCAGAUUGGCCCAGUGGCAUG | 1.44 |
| UCCUCCUCUGAGAGCAGUGAUGCAGGCCAGGAGACAUCAUUUGAGAAUGCUGAUGCUUUUGUAAGGCUUUGACCUGGUUAGGUCAUUGGGGGAAAUUUUCUAUAAAAGAG | 2.32 |
| GAGGUGAUGCUGGCUACAGCCCUGGCAGCCCAUGGCAACUCAAAGUGCCUUCCAAACCAAACUGCCCCUCAUGAGGUUAGGGUCCCCCACCCUCCACCUGCCCAGAGGCC | 0.221 |
